# Measured values of several laboratories.
# Protocols differ between the studies behind these lines. Values joined by “and” are separate records of one study, mostly repeats; a detail may differ. ± gives the spread as reported.
Structure (SMILES),assay,system,conditions,scale,quantity,result
CC[C@@]1(O)C(=O)OCc2c1cc1n(c2=O)Cc2cc3cc(OC(=O)CCCC(=O)NCC(=O)N[C@@H](Cc4ccccc4)C(=O)N[C@@H](Cc4ccccc4)C(=O)N[C@@H](Cc4ccc(OP(=O)(O)O)cc4)C(=O)NCCSSCCNC(=O)CCC(=O)N[C@@H](CCC(=O)O)C(=O)N[C@@H](CCCNC(=N)N)C(=O)NCC(=O)N[C@@H](CC(=O)O)C(=O)O)ccc3nc2-1,,"nude mice, HepG2 xenograft","intravenous, 3 mg/kg HCPT equivalent, day 21, four doses, initial 300 mm^3",,tumour volume,~146 mm³
CCN(C)C(=O)Oc1ccccc1/C=C1\Cc2cc(OC)c(OC)cc2C1=O,,"C57BL/6J mice, tumour-bearing, irinotecan gut toxicity, colon","dose not given, at high dose, together with: irinotecan",,UGT1A1 expression,increased
Cc1ccc(/C=C/C(=O)O)cc1-c1cc2c(cc1C)C(C)(C)CCC2(C)C,"RNA sequencing, item: Mpeg1","rat, brain","dose not given, 24 h",baseline: vehicle,log2 fold change,-0.94
O=C(O)/C=C/c1cc(O)cc(O)c1,DPPH radical scavenging,,62.5 µg/mL,,inhibition,49.7 ± 2.31%
O=C(CSc1nc2c(=O)n3cc(-c4ccccc4)[nH]c3nc2n1[C@@H]1O[C@@H]2CO[P@@](=O)(S)O[C@H]2[C@H]1O)NCCOCCOCCOCCOCCOCCOCCOCCOCCNC(=O)CSc1nc2c(=O)n3cc(-c4ccccc4)[nH]c3nc2n1[C@@H]1O[C@@H]2CO[P@@](=O)(S)O[C@H]2[C@H]1O,,"rd1 photoreceptor-like cells, mouse",dose not given,,cell death,toxic
CCOP(=O)(OCC)OCCCCOC(=O)CC1=C(C)/C(=C/c2ccc([S+](C)[O-])cc2)c2ccc(F)cc21 (stereo not shown),,"rat, adjuvant-induced arthritis","topical, 50 mg/kg once daily, prevention protocol, PSH vehicle",baseline: vehicle,paw weight reduction,56% and 65%
CC(C)C[C@@H]1NC(=O)[C@@H](Cc2c[nH]c3ccccc23)NC(=O)[C@H](CCCNC(=N)N)NC(=O)[C@@H](CCC(=O)O)NC(=O)[C@H](CCC(N)=O)NC(=O)[C@@H](CCC(=O)O)NC(=O)[C@H](CCCNC(=N)N)NC(=O)[C@@H](Cc2c[nH]c3ccccc23)NC1=O,,"LDLr-/- mouse, western diet, plasma","oral, drinking water, 35 mg/kg/day, 2 weeks",baseline: untreated western diet group,total cholesterol reduction,36%
CC(C)C[C@@H]1NC(=O)[C@H](C(C)C)NC(=O)[C@H](CO)NC(=O)CNC(=O)CNC(=O)[C@H](CCCNC(=N)N)NC(=O)[C@@H]2CCCN2C(=O)[C@@H](NC(=O)CC[C@H](NC(=O)c2ccc(N(C)Cc3cnc4nc(N)nc(N)c4n3)cc2)C(=O)O)C(C)(C)SSC[C@@H](C(=O)O)NC(=O)CNC(=O)[C@H]([C@@H](C)O)NC(=O)[C@H](C(C)C)NC1=O,,rat adjuvant arthritis,"iv, 5 mg/kg once daily day 0-14, day 14",,paw weight,2.27 ± 0.223 g
CCOP(=O)(OCC)OCCCCOC(=O)CC1=C(C)C(=Cc2ccc([S+](C)[O-])cc2)c2ccc(F)cc21 (stereo not shown),item: phospho-ERK,"nude mice, orthotopic A549 tumour, tumour","inhalation, dose not given",baseline: vehicle,decrease in phosphorylation,72%
CC[C@H](C)[C@H](NC(=O)[C@H](Cc1c[nH]c2ccccc12)NC(=O)[C@H](CCCNC(=N)N)NC(=O)[C@H](CCCCN)NC(=O)[C@H](CC(C)C)NC(=O)[C@H](CC(=O)O)NC(=O)[C@H](Cc1ccccc1)NC(=O)[C@H](C)NC(=O)[C@H](Cc1ccc(O)cc1)NC(=O)[C@H](CC(N)=O)NC(=O)[C@H](Cc1ccc(O)cc1)NC(=O)[C@H](CCCNC(=N)N)NC(=O)[C@H](Cc1ccc(O)cc1)NC(=O)[C@H](Cc1ccc(O)cc1)NC(=O)[C@@H](NC(=O)[C@H](CC(C)C)NC(=O)[C@H](C)NC(=O)[C@H](CC(N)=O)NC(=O)[C@H](Cc1ccc(O)cc1)NC(C)=O)[C@@H](C)CC)C(=O)N[C@@H](Cc1ccc(O)cc1)C(=O)N[C@@H](CC(C)C)C(N)=O,item: HA-15 tetramer,"antigen-experienced tetramer+ CD4 T cells, healthy adults, HLA-DRB1*0101",dose not given,,α4β7+ CCR9− cells,50%

# For quick reference, copied from above:
Structure (SMILES),assay,system,conditions,scale,quantity,result
CCOP(=O)(OCC)OCCCCOC(=O)CC1=C(C)/C(=C/c2ccc([S+](C)[O-])cc2)c2ccc(F)cc21 (stereo not shown),,"rat, adjuvant-induced arthritis","topical, 50 mg/kg once daily, prevention protocol, PSH vehicle",baseline: vehicle,paw weight reduction,56% and 65%
